Assay results pooled from the literature.
Parts stem from different laboratories: compare values within a part only.

Set 1
Target: RNA binding protein fox-1 homolog 2, RRM domain, GST-SBP tag (RBFOX2, Homo sapiens, UniProt O43251-10, residues 100-194)
Method: RNA Bind-n-Seq
Form: RNA
Matrix: in vitro
Concentration: 365 nM
Setting: natural RNA segment, single round, ends assumed
Baseline: no-protein control
Direction: higher = stronger binding
Residues (chain): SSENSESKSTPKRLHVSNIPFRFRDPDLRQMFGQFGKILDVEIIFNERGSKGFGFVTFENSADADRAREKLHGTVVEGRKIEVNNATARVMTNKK
`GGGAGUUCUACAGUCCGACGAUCCACAGGACACUUCACUGCCAUUUUCUAUGCACAUGGAAGAAUAAUAAAUGUGGAAAUUUCAUCCUGGAGAAUGUGUUCUUGCAGUUCUUCUGGGUGCGAUCAUGGAAACAUGGAAUUCUCGGGUGCCAA` — result for “RBNS enrichment (R)”: 0.241.
`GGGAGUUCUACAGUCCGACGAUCCCUGAGAAUAGACAGGAGAGGGUCAGAAGCAGACGUCCUCCUUUUCUUGUGAUAACCACGCUACUUGCCUUUGCUAGAGCUCUCUGUGGCCAACCCUGGGAAAUGCUAAUUGGAAUUCUCGGGUGCCAA` — result for “RBNS enrichment (R)”: 0.659.
For `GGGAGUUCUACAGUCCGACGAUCCUGGAAAACUAUCAGAAGACAAAGUUUGACACCUUGAUACCCACUCUCUGUGAAUACCUACCCCCUUCUGGCCACGGUGCCAUACCUGUUUCUUCCUGUGACUGUAGAGAUGGAAUUCUCGGGUGCCAA`, “RBNS enrichment (R)” read 0.526.
`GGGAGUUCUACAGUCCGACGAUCAGGCCUCCAAGGCAGAAGCUAUUGGGAGCCUCCCUGAUGCUCCUCAGCCUCUUAGAGAGGAGCCCUUGUAUGGCCAGGUCACACGGCAUCCCAGUGGCCGGGGAGUCACCUGGAAUUCUCGGGUGCCAA`: “RBNS enrichment (R)” 0.286.
`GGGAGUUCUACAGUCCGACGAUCUUUAUUUUUAUUUAAAUGUCAAUAGUUGUUUUUUAAAAUCCAAAUCAGAGGUGCAGGCCACCAGUUAAAUGCCGUCUAUCAGGUUUUGUGCCUUAAGAGACUACAGAGUCUGGAAUUCUCGGGUGCCAA` — result for “RBNS enrichment (R)”: 0.687.
For `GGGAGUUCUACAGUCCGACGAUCCCCGUCCUGGCUAUGAAACCUUGUGAGCAGAAGGCAAGAGCGGCAAGAUGAGUUUUGAGCGUUGUAUUCCAAAGGCCUCAUCUGGAGCCUCGGGAAAGUCUGGUCCCACAUGGAAUUCUCGGGUGCCAA`, “RBNS enrichment (R)” read 0.34.
`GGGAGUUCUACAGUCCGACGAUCCGACGCCGAUCCAUAGUACUGUACAGACCCACCGCCACCCUUCUCCUCGGAAGAUGCACUGUGCUGUUUGAAAACAUGUAGCCGUUUAAGGCUAGAGUAUUUUAUAUAAAUGGAAUUCUCGGGUGCCAA`: “RBNS enrichment (R)” 0.591.
For `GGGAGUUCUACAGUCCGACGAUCCACAAAUGUUAUUUAAAAGCAUCUUCUCACCUACAUAGAAGUAAACAAAACACACAAUUUGGGAUUUUGACUCUUCAGUUUUGACCUCACUUCUCCUGGAUCCAACCUGAUGGAAUUCUCGGGUGCCAA`, “RBNS enrichment (R)” read 0.893.
`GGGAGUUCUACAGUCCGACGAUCUAUGAUCAGGACCAUAUCCUGCCCAUCUUUGGGCCCUUGGCACUAAAACAAGUGAAUAGAUCCAAGUGAAUAAAGUAAUUUCUCCAUUGACUUUUUUUUUUAACUGCUAGUGGAAUUCUCGGGUGCCAA`: “RBNS enrichment (R)” 0.366.

Set 2
Target: Sox-I, HMG box (Salpingoeca helianthica)
Method: Spec-seq
Form: double-stranded DNA, one strand shown
Matrix: in vitro
Concentration: not given
Setting: whole probe, mean of replicates
Baseline: not given
Direction: lower = stronger binding
Constant ends, left off below: GAGTCGTCTCGTCAGCAC … CCGTAGAGCACTCAGGTC
Residues (chain): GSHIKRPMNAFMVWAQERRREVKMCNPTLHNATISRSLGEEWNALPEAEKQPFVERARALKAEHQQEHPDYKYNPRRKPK
`TCAGGTT` — result for “relative binding energy”: 0.605 ln ratio.
`GACTGTT`: “relative binding energy” -0.326 ln ratio.
Under “relative binding energy”, `CATACGC` is recorded as 0.805 ln ratio.
For `CATGAGC`, “relative binding energy” read 1.09 ln ratio.
For `TGGTGTT`, “relative binding energy” read 0.323 ln ratio.
For `CGATGTT`, “relative binding energy” read 0.151 ln ratio.
Under “relative binding energy”, `CATCCGT` is recorded as 1.01 ln ratio.
For `CATGTCA`, “relative binding energy” read 0.796 ln ratio.
`CATAGAG` — result for “relative binding energy”: 0.0922 ln ratio.

Set 3
Target: Interferon regulatory factor 5, full length, phosphomimetic (IRF5, Homo sapiens, UniProt Q13568-2, residues 1-514, S451D/S453D/S456D/S462D)
Method: protein-binding microarray
Form: double-stranded DNA, one strand shown
Matrix: in vitro
Concentration: 940 nM top
Setting: 60-bp whole probe
Together with: salmon DNA 0.4 mg/ml
Baseline: random background probes
Direction: higher = stronger binding
Constant ends, left off below: GCCTAGCAC … GTCTTGATTCGCTTGACGCTGCTG
For `GACGATATCAGTATCGATACGTGCTAG`, “fitted relative affinity” read 5.43 z-score.
Under “fitted relative affinity”, `TTAGGACTGGGAGTGGGTTAGTGCTAG` is recorded as -0.293 z-score.
`TTAGGACTGCGTCTCGGTTAGTGCTAG` — result for “fitted relative affinity”: 0.667 z-score.
`TCAAATTTTTTTTCTAAACTGTGCTAG`: “fitted relative affinity” 0.475 z-score.
For `GAGAGTAGCTTTCTGAGGGCGTGCTAG`, “fitted relative affinity” read 0.746 z-score.
`GACGATTGCAGACTGGAGACGTGCTAG` — result for “fitted relative affinity”: -0.491 z-score.
`TTTGGTTTCGGGTATCGGTTAGTGCTA`: “fitted relative affinity” 13.8 z-score.
Under “fitted relative affinity”, `TCATGTGTCAGGTTTACTACTGTGCTA` is recorded as -0.0296 z-score.
`CACGGACTGGGTCTCGGGACGTGCTAG` — result for “fitted relative affinity”: -0.201 z-score.
Under “fitted relative affinity”, `TTAGGACCGGGGTTTCGGTTAGTGCTA` is recorded as 5.22 z-score.

Single results of other studies
The fold induction of `PhoQ, residues 284 288 289 292 302 303 TNASYF` is reported as 8.05 (PhoP, residues 12 14 15 18 19 LQHIR (Escherichia coli, UniProt P23836); Sort-seq, item: YFP reporter; E. coli; PhoQ-PhoP variant library, together with: 10 µM Mg2+; baseline: high Mg2+ state, higher = stronger signaling).

Repeated from above (set 3):
`TTTGGTTTCGGGTATCGGTTAGTGCTA`: “fitted relative affinity” 13.8 z-score.
Under “fitted relative affinity”, `TCATGTGTCAGGTTTACTACTGTGCTA` is recorded as -0.0296 z-score.
